Experimental data of several laboratories.
Every numbered part comes from another study and shows a few of its results, in no order. Positions count from the first letter of the parent shown.

Sample 1
Target: CCNB2, cyclin fold, Cln2 fusion (human)
Method: yeast growth competition, sequencing
Matrix: yeast
Setting: weak parent motif
Baseline: not given
Reading: higher = stronger binding
Starting sequence: PKN2 docking peptide (human); VSAVRKLDFSDTM; partner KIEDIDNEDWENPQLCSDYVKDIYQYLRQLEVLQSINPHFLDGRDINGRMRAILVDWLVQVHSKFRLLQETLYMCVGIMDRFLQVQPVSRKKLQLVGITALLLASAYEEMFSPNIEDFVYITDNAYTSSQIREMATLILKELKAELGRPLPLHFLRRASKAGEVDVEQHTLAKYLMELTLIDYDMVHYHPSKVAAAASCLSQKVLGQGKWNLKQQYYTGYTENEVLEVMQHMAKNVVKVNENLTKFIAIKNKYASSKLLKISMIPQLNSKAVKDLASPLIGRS
Substitution	normalised enrichment score
VSAVRKLVFSDTM [D8V]	0.188
VSAVRKLKFSDTM [D8K]	0.264
VSAVEKLDFSDTM [R5E]	-0.174
VSAVRKADFSDTM [L7A]	0.282
VSAVRKLMFSDTM [D8M]	-0.106
VSAVRKLDFYDTM [S10Y]	0.759
VLAVRKLDFSDTM [S2L]	0.382
VSAVRKFDFSDTM [L7F]	-0.153
VSAVRKLRFSDTM [D8R]	0.166

Sample 2
Target: Hepatocyte nuclear factor 3-alpha (Foxa1, Mus musculus, UniProt P35582, residues 1-468, full length assumed)
Method: EMSA with sequencing
Form: double-stranded DNA, one strand shown
Matrix: in vitro
Tested at: 10 and 20 nM
Setting: whole designed probe, mean of two concentrations, ends assumed
Baseline: negative control set to 0
Reading: higher = stronger binding
Target sequence (chain): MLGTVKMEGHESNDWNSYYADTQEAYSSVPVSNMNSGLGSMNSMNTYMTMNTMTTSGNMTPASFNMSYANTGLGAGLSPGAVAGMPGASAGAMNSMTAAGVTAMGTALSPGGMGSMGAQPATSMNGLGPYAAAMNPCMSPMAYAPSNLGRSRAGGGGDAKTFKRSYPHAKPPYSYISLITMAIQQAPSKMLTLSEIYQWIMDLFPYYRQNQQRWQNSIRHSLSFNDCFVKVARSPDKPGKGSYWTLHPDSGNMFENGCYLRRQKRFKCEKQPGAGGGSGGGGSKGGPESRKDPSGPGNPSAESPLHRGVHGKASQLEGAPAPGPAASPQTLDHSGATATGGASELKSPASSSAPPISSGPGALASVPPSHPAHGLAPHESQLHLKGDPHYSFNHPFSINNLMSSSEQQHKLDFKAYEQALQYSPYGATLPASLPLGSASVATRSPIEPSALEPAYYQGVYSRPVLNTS
Sequence	normalised bound fraction
GTGAGCGGTGCCCATTGATGGGGAACTTAGGACCTCCCCTGCCACCATCTGGGCAGTGAAGCTCTGCCGGTGTGCTACTGGCAGTGTCCCGGGTTGTGTGTGGAGACACTGAGCACTGTTGTTTACTTTAGAAGTTTATTGTCCCCAGAATGCTGCTCCCCCACAACTGTCTCCTGCAGCATGAAGGCTGACATTGTATCGTGGCTGTGTATCCACATGTTTCACTGGGATCGTGGGGAC	0.498 ratio
GTGAGCGGTGCCCATTGATGGGGAACGCATGAGACAGCATTTCTTCTTGTCCTCGGGGCCTGCAGGAAGTTTTTAAGTAATCTGCTTTTGTGCCTCTTCCAAATCTCCTCCTATGACCCAGATTACCTTACATCACAAGAAACAATCAATAAAAGTGGTTTGTGTTCGTGAGTGCCGTGTGTTTGACAAAGGCGTTGATAACTGAGAGCTGGTAGTGGATTTCACTGGGATCGTGGGGAC	0.00933 ratio
GTGAGCGGTGCCCATTGATGGGGAACAGCAAGGCTTTAAAAGTGAGGTCTTTCAGTTTAGATGCAAAAAGGGTGGTTCTGTTGAGTCAACCCAGCTATTTCACTACATAGTTTCGTAATGTAATCTCCTAGAATGAGGTAGCTGGAGTGCAAATCTAAATGGCTTGTGACAGTTAAGGAAGTACATAGGCAACAGTTACTGGTTTTCTTGATGCAGCTGTTTCACTGGGATCGTGGGGAC	-0.0645 ratio
GTGAGCGGTGCCCATTGATGGGGAACGAGCAGGTGGGATAGGGCACCAGCTTTGTGATTATGCTGGTTTGTTTACAGTTGTGTCCTGCCACTGTTAATAATGGCAAATGAAACAAACAATGTAAACACAGACTTCTTTTTGTTTTTCATAATCTGAGAAGGTGGTTAGTTCTTAGGTCAGGTCAGTTTCACCAATCTAAGGAGTTTTTTTCCTATTTTTTTTCACTGGGATCGTGGGGAC	0.473 ratio

Sample 3
Target: Histone acetyltransferase KAT6A, winged helix 1, GST fusion (KAT6A, Homo sapiens, UniProt Q92794, residues 1-85)
Method: protein binding microarray
Form: double-stranded DNA, one strand shown
Matrix: in vitro
Tested at: not given
Setting: 8-mer, flanks averaged, mean of 2 arrays, mostly near background
Baseline: not given
Reading: higher = stronger binding
Construct (chain): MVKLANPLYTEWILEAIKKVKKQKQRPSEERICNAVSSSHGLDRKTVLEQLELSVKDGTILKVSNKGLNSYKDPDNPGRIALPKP
Sequence	E-score
ATTCGGAC	0.0868
GATAAGCC	-0.0427
CTCGTTCA	-0.0614
GCGGTCAA	0.328
ACCATCCA	-0.165
CTATGTGA	-0.122
AATCATTG	-0.261
ACCACCGC	0.203
AAGAGCAA	-0.151
CAGCAACA	-0.229
ACTGCGCG	0.385
GCAGACCA	-0.014
CGTCCCCA	0.0344

Further values, each from its own experiment
Molecule	target	test	test system	conditions	how to read	quantity	result
PhoQ, residues 284 288 289 292 302 303 SQSLSM	PhoP, residues 12 14 15 18 19 LHATL (Escherichia coli, UniProt P23836)	Sort-seq, item: YFP reporter	E. coli	PhoQ-PhoP variant library, with: 10 µM Mg2+	baseline: high Mg2+ state, higher = stronger signaling	fold induction	0.771

Some of these lines once more (sample 3):
Sequence	E-score
ACCATCCA	-0.165
AATCATTG	-0.261
GCGGTCAA	0.328
GATAAGCC	-0.0427
